Results from different studies.
Numbered parts are unrelated; each lists some results of a single study.
UniProt Q9UQM7, sequence (whole entry, looked up): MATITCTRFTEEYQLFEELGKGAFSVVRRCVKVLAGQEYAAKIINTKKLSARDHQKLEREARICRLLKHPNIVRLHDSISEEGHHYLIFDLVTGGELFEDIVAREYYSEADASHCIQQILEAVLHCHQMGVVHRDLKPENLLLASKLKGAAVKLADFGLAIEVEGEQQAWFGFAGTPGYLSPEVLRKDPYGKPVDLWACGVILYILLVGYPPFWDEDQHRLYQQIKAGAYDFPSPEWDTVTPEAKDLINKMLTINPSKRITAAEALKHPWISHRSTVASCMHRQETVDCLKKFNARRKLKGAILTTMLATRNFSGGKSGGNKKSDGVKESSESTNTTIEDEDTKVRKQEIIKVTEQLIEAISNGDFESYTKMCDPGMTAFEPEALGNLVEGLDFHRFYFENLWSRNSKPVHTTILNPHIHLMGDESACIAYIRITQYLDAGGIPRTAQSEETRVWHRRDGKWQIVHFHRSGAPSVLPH

Sample 1 — target: UBE2D4 UBC core domain (UniProt Q9Y2X8); technique: yeast two-hybrid; matrix: yeast; setting: mostly zero background; relative to: not given; direction: higher = stronger interaction
B1: RNF208 RING domain (UniProt Q9H0X6); chain SSAAAGEPLECPTCGHSYNVTQRRPRVLSCLHSVCEQCLQILYESCPKYKFISCPTCRRETVLFTDYG
B2: TRIM40 RING domain (UniProt Q6P9F5); chain LQKDNQEEGVCPICQESLKEAVSTNCGHLFCRVCLTQHVEKASASGVFCCPLCRKPCSEEVLG
B3: NEURL1 RING domain (UniProt O76050); chain VTPGLGQWSDECTICYEHAVDTVIYTCGHMCLCYACGLRLKKALHACCPICRRPIKDIIKT
B4: VPS41 RING domain (UniProt P49754); chain KGVLVDEENICESCLSPILPSDAAKPFSVVVFHCRHMFHKECLPMPSMNSAAQFCNICSAKNRGPGSAI
B5: TRAF5 RING domain (UniProt O00463); chain FVERLEERYKCAFCHSVLHNPHQTGCGHRFCQHCILSLRELNTVPICPVDKEVIKSQEVFK
B6: DTX4 RING domain (UniProt Q9Y2E6); chain QKVRHPPDEDCTICMERLTAPSGYKGPQPTVKPDLVGKLSRCGHVYHIYCLVAMYNNGNKDGSLQCPTCKTIYGVKTGTQ
B7: TRIM5 RING domain (UniProt Q9C035); chain ILVNVKEEVTCPICLELLTQPLSLDCGHSFCQACLTANHKKSMLDKGESSCPVCRISYQPENIRP
Residues (chain): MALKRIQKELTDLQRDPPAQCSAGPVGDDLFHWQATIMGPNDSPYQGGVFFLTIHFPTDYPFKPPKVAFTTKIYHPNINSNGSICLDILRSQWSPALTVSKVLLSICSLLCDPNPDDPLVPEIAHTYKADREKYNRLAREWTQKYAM
| Sequence | lacZ reporter activity |
| --- | --- |
| B1 (RNF208 RING domain) | 0 |
| B2 (TRIM40 RING domain) | 0 |
| B3 (NEURL1 RING domain) | 0 |
| B4 (VPS41 RING domain) | 0 |
| B5 (TRAF5 RING domain) | 0 |
| B6 (DTX4 RING domain) | 0 |
| FQGDVDEDLICPICSGVLEEPVQAPHCEHAFCNACITQWFSQQQTCPVDRSVVTVAHLRP (RNF41 RING domain (UniProt Q9H4P4)) | 0 |
| B7 (TRIM5 RING domain) | 0 |
| QVDKAVFHMQSVKCLKCQEQKRAVLPCQHAALCELCAEGSECPICQPGRAHTLQS (UNK RING domain (UniProt Q9C0B0)) | 0 |

Sample 2 — technique: protein-binding microarray; form: double-stranded DNA, one strand shown; matrix: in vitro; concentration: 940 nM top; setting: 60-bp whole probe; with: salmon DNA 0.4 mg/ml; relative to: random background probes; direction: higher = stronger binding; constant ends, left off below: GCCTAGCAC … GTCTTGATTCGCTTGACGCTGCTG
Target: Interferon regulatory factor 5, full length, phosphomimetic (IRF5, Homo sapiens, UniProt Q13568-2, residues 1-514, S451D/S453D/S456D/S462D)
| Strand | fitted relative affinity [z-score] |
| --- | --- |
| GACGGTATCGGTTTCGCGACGTGCTAG | 9.13 |
| TTAGATTTCGGTATCGGTTAGTGCTAG | 7.07 |
| TTAGGACTGGGGTTTCGGTTAGTGCTA | 5.51 |
| GACGTTATCGACACTGGGGACGTGCTA | 0.348 |
| GACGAACTGGGGTTTCGATACGTGCTA | 5.02 |
| TTTGGTATCGGTATCGGTTAGTGCTAG | 14.6 |
| TCACCTTTTCTTTACTGACTGTGCTAG | 2.07 |
| TTAGGTATCGGGTTTCGTTTAGTGCTA | 6.61 |

Sample 3 — technique: EMSA with sequencing; form: double-stranded DNA, one strand shown; matrix: in vitro; concentration: 10 and 20 nM; relative to: negative control set to 0; direction: higher = stronger binding
Target: Hepatocyte nuclear factor 3-alpha (Foxa1, Mus musculus, UniProt P35582, residues 1-468, full length assumed)
Setting: whole designed probe, mean of two concentrations, ends assumed
Constant ends, left off below: GTGAGCGGTGCCCATTGATGGGGAAC … TTTCACTGGGATCGTGGGGAC
Target sequence (chain): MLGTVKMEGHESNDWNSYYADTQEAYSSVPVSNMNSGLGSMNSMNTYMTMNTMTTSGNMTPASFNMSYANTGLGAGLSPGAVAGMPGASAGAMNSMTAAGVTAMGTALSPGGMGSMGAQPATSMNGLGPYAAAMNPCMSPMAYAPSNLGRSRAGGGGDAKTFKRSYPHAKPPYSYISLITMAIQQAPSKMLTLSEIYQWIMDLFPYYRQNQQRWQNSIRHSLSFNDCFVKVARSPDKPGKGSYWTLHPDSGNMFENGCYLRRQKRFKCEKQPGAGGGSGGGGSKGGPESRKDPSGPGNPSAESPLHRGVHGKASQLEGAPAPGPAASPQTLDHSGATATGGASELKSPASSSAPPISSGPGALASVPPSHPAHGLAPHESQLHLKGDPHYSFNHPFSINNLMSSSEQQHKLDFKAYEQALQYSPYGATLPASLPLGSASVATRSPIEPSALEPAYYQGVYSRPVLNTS
| Strand | normalised bound fraction [ratio] |
| --- | --- |
| AAAGTAATATAGCAGAATGACTTTTATTATAGATGATAATTTATGAAAAATGTAGCCAACGGAATTGATGTCAAACTTTTATCCACAAGTGCTATTTACTTTAGTATTGCTCACTATTTACCAAGGTTTGTTACAGCAGTAGTCACTATCTCAGTTGGCATTCGGCCTGTTTATATTTTTTAAAGTGGCATTG | 0.39 |
| TTATTTTAATGCATGCATTAATTCTCCTTTTCATCTCACTGCCTGCCAGAAAATTGGTTGTACAAGCGTTCAAGGCATTTTCCCTGGACCAGATATTTACACAGGAGTACTGTGTTGACATTATGTGGCTTCGGATTTCAGCGGGCAGGCTGATGCCTCTTGGGACATGTAAGTGCAGAAGGCAAGGCCTGCC | 0.39 |
| CTTTATTTTTCAGGCCATCCGTTGCACACTGGTAAACTGCACATGTGAATGTTTTCAGCCAGGGAAGATTAACCTGAGGACTTGTGATCAGTGTAATCTTGGCTGGGTGGCACATGGTGAGGAAAATCTGGGCTTTTCTTCCCGTTCTTATTATGTTCATGTTCGTGTGTGTGTGTGTGTGTGTGTGTGTGTG | -0.0501 |
| GTGAGCCACTGCGCCCAGCCCATAAATCCTTTTATAAGCTTAAAAAAAATTTCTTTTTTCTCTCCTGTATATTACTATGTTTTATATTTTAAGTAATCTAGAATATACCTATGAATACTGTACTCAATTTAAAGTAATCTACCATCAATTGCATTACTTCCAAATTAAATTTAAATGTCAGTTTAATTAATGA | -0.0421 |
| ACTAAATACAAACGATTAGAGCGTCACGGAAGATTAGCAAACATTCTACTGCAAACAGCACTCCCAGATCCACAGAAACCAGGTCACTACTATGTAATCTTTTTGCACCACTTCGTAAACAGATAAAAATATCAAGTCAGTTTGGTGTAAACAGACCAACAGCAGGAGAAGCCAGCATCCTTCTTAGATGGGA | 0.271 |
| ATTTTATTTGCTACAACAAGCAAGAAGGCTGAGGTTTATTGAGCAATAGCTGGGTTTTGTCAAACTTGCTTAAGGATTGCCTAAGACCAGCAAAATAAACATGATAAAGTTGAAGAATGACCAGTTTTCCACTCTGCTGTGTTTGGAGGCTGACGAAACTGTCATTGACAAAATTGCCCTGATGGGACTGTTT | 0.234 |
| TGAACAGATTAGCTGATCTCTAATGGCCCTAGGAGAAGATCTTGTATTGCTTCAAAATCTTTTCTGATTCTCATCACTCAACCTTCTTGGCTATGTAATCTAAGGAAGCTTTCCTTTTGTTTTCCAGACGTTTGGAAAACAAAATTTTCCAGAGCTGTGCATCTGCCAGGAAATGTTTCTTTTAACCTGATAT | -0.0504 |
| ATCTTCCCCCTCTTCCTTGCCCCACCAGCTCACCTTCCCGGGTATATTGGAGATAGGAAATTAATATAAGCCGGCATTCGTTAACCCTCTTCACGCGCATACTGCCAAAGTAAACAGATCTAACATGGTCCTTTGGCGACGCCAGGCTCCGGGAGAGCAAAGCACCGTGTCAGGGCCATGATCCGGGGTGGCC | 0.419 |

Sample 4 — effect on: peptide-MHC binding; form: peptide; concentration: concentration not given
Target: HLA class I histocompatibility antigen, A alpha chain, allele A*80:01 (Homo sapiens, UniProt P04439)
| Sequence | binding |
| --- | --- |
| FEFILRYGD | inactive |
| IAHVRDVVM | inactive |
| SLFNWLWYE | inactive |
| MQGKDFNHL | inactive |
| VILYFMYRK | inactive |
| GVRQFSGWM | inactive |
| QLSLRMLSL | inactive |
| TSCAPMMQK | inactive |
| SPVMGVIGF | inactive |
| VYQRGTHPF | inactive |
| DMYFCHFYK | inactive |
| VLIRRCHYL | inactive |
| LVTARQKLK | inactive |
| FWAWSVLRV | inactive |
| SAYYLDIGF | inactive |
| MSDIFASEV | inactive |
| GQFLSFASL | inactive |
| HSDDALFIY | inactive |
| NSTHNTPVY | inactive |
| MNNGGDAMY | inactive |
| TEDDWITYI | inactive |
| QLAKRSEIL | inactive |
| FLYDRLAST | inactive |
| FVKDWMDRI | inactive |
| IYDFYNAEY | inactive |

Other studies, line by line
| SMILES | target | effect on | action | concentration | endpoint | result |
| --- | --- | --- | --- | --- | --- | --- |
| CC[C@H]1CN2CC[C@@]3(C(=O)Nc4ccccc43)[C@@H]2C[C@@H]1/C(=C\OC)C(=O)OC | Calcium/calmodulin-dependent protein kinase type II subunit alpha (CAMK2A, Homo sapiens, UniProt Q9UQM7) | enzyme activity | inhibitor | 10 µM | inhibition | -6% |
